Experimental data pooled from the literature.
A part holds a random share of what one study measured. “And” joins repeats or separate records; there may be more than shown.

Set 1 — effect on: ligand displacement; concentration: 10 µM
Target: Muscarinic acetylcholine receptor M4 (CHRM4, Homo sapiens, UniProt P08173)
UniProt P08173, sequence (whole entry, looked up): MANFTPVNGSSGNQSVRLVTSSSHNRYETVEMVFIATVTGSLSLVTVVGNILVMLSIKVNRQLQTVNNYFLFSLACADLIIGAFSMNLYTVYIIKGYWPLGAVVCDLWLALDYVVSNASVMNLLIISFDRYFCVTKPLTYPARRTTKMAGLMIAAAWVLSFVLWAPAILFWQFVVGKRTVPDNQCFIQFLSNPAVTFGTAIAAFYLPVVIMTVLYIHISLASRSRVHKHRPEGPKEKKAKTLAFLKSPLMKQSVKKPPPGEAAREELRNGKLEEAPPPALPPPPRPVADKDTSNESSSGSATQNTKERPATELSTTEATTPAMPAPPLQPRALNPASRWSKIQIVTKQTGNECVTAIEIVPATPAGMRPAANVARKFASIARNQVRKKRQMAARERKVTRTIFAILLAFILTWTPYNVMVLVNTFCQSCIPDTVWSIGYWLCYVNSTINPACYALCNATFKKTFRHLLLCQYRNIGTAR
Structure (SMILES)	inhibition [%]
c1ccc(N2CCN(Cc3nc4ccccc4[nH]3)CC2)nc1	4.23
COc1cc(C(=O)O)ncc1C#Cc1ccccc1NS(=O)(=O)c1cccc2c(N(C)C)ccnc12	-5.83
CNC(=N)NCCC[C@H](NC(=O)[C@H](CC(C)C)NC(=O)NNC(=O)[C@H](Cc1ccccc1)NC(=O)[C@H](CO)NC(=O)[C@H](CC(N)=O)NC(=O)[C@@H](Cc1ccncc1)NC(=O)[C@H](N)Cc1ccc(O)cc1)C(=O)N[C@@H](Cc1ccccc1)C(N)=O	13.8
COc1ccc2cc(OCC3(C(=O)O)CN(C(=O)c4ccc(F)cc4)C3)ccc2c1	-18.6
CC(=O)Nc1ncc(CN2CCC[C@H](Cc3cc(C)nc(C)c3)C2)s1	-5.53
O=C(NCCCC1CCCCC1)c1ccc(CNC(=O)c2cnn(-c3ccccc3)c2C(F)(F)F)cc1	20.1
c1ccc(C2CCN(c3cnc4c(N5CCOCC5)nccn34)CC2)cc1	-5.45
N#CC1(c2ccccn2)CCN(Cc2cc(C(=O)N3CCCC3)c(=O)n3ccccc23)CC1	-8.87
CNC(=O)Nc1ccc2c(c1)CC[C@]21OC(=O)N(CC(=O)N(Cc2ccc(F)cc2)[C@@H](C)C(F)(F)F)C1=O	11.2
O=S(=O)(NC1CCC(c2cc(F)ccc2F)(S(=O)(=O)c2ccc(Cl)cc2)CC1)C(F)(F)F (stereo not drawn)	18.8
Nc1nc(NCc2ccccc2)nc(-c2ccccc2CO)n1	-9.42
CS(=O)(=O)N1CCCC(NC(=O)[C@H](CCC2CCCCC2)NC(=O)c2ccc(CNC(=O)c3cnc4ccccn34)cc2)C1 (stereo partly drawn)	-2.24
CN(C)c1ncnc(-c2ccc3nc(Nc4cc(CN5CCN(C(=O)CC(F)(F)F)CC5)ccn4)[nH]c3c2)c1Cl	4.83
Cn1nc(C(=O)NCc2ccc(C(=O)O)cc2)cc1-c1ccc2[nH]ccc2c1	0.05
Cc1ccccc1Oc1cc(-n2c(=O)cc(C(F)(F)F)[nH]c2=O)c2ccccc2c1Cl	-8.67
CN1CCN(C(=O)C(C)(C)c2ccc(C(=O)Nc3cn4cc(-c5cc(C(C)(C)C)cc(C(C)(C)C)c5)ccc4n3)cc2)CC1	0.99
C[C@H](c1ccnc(Nc2nc3ccc(-c4cc(N(C)C)ncn4)cc3[nH]2)c1)N1CCN(C(=O)CC(F)(F)F)CC1	24.7
Nc1nc(NCc2ccccc2)nc(-c2cccc(CO)c2)n1	12.8

Set 2 — cell line: HaCaT; concentration: 100 µM; time: 18 h
Compound	viability [%]
CC1=C(/C=C/C(C)=C/C=C/C(C)=C/C(=O)O)C(C)(C)CCC1	70.7
CCN(CC)CCNC(=O)c1cc(Br)c(N)cc1OC	111
COC(=O)C1=C(C)NC(C)=C(C(=O)OC(C)C)C1c1cccc2nonc12 (stereo not drawn)	48.8
CO/N=C(\C(=O)N[C@@H]1C(=O)N2C(C(=O)O)=C(C[N+]3(C)CCCC3)CS[C@H]12)c1csc(N)n1	107
N=C(N)c1ccc(OCCCCCOc2ccc(C(=N)N)cc2)cc1	99.5
NC[C@H]1O[C@H](O[C@H]2[C@H](O)[C@@H](O[C@H]3O[C@H](CO)[C@@H](O)[C@H](N)[C@H]3O)[C@H](N)C[C@@H]2N)[C@H](O)[C@@H](O)[C@@H]1O	111
NS(=O)(=O)c1cc2c(cc1C(F)(F)F)NC(Cc1ccccc1)NS2(=O)=O (stereo not drawn)	75.7
CCCCc1oc2ccc(NS(C)(=O)=O)cc2c1C(=O)c1ccc(OCCCN(CCCC)CCCC)cc1	20.7
CCOc1ccc(Cc2nccc3cc(OCC)c(OCC)cc23)cc1OCC	48.8
CO[C@@]1(NC(=O)Cc2cccs2)C(=O)N2C(C(=O)O)=C(COC(N)=O)CS[C@@H]21	91.5
CN(C)CCC(c1ccc(Cl)cc1)c1ccccn1 (stereo not drawn)	107
Clc1ccc(C(Cn2ccnc2)OCc2ccc(Sc3ccccc3)cc2)c(Cl)c1 (stereo not drawn)	18.8

Set 3 — matrix: plasma
SMILES: O=C1CCC(N2Cc3cc(C4CCN(Cc5ccccc5)CC4)ccc3C2=O)C(=O)N1 (stereo not drawn)
host	route	dose	half-life
Sprague Dawley rat, male	oral	3.0 mg/kg	1.18 h
male ICR mice	oral	3.0 mg/kg	1.19 h and 1.35 h
male ICR mice	intravenous	1.0 mg/kg	3.9 h and 3.02 h
rat Sprague Dawley male	intravenous	1.0 mg/kg	2.48 h and 4.94 h and 5.45 h
rat Sprague Dawley male	oral	3.0 mg/kg	1.22 h and 1.52 h
ICR mouse, male	intravenous	1.0 mg/kg	2.93 h

Set 4 — effect on: enzyme activity; mode: inhibitor; concentration: 0.5 µM; relative to: control
Target: High affinity nerve growth factor receptor (NTRK1, Homo sapiens, UniProt P04629)
UniProt P04629, sequence (whole entry, looked up): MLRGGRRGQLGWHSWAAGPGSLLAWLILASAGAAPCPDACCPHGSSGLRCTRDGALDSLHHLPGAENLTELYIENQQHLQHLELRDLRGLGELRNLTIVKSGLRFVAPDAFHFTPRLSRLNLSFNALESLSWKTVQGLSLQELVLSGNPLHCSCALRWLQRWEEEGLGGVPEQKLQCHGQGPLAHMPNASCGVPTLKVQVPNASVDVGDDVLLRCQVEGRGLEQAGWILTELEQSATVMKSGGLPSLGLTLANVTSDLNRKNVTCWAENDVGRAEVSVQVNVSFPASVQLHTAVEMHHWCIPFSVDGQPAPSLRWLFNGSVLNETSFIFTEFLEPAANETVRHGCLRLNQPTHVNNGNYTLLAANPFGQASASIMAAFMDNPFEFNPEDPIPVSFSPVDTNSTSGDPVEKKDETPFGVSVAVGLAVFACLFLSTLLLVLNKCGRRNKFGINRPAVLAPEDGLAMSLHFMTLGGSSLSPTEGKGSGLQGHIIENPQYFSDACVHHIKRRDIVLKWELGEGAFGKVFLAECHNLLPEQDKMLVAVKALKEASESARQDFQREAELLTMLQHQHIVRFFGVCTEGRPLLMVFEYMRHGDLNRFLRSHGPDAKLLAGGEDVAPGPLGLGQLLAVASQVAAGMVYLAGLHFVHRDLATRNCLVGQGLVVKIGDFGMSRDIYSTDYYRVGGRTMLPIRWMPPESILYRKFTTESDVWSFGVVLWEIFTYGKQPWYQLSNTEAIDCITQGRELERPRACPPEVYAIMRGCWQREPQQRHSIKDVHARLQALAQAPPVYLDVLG
SMILES	remaining activity [%]
N#CC(c1ccnc(NCCc2cccnc2)n1)c1nc2ccccc2s1 (stereo not drawn)	106
O=C(c1ccccc1)c1ccc(N2CCOCC2)cc1O	99
FC(F)(F)c1ccc(/C=C/c2nc(COc3ccc(CCCCn4ccnn4)cc3)co2)cc1	103
CCCCc1c(-c2ccc(O)cc2)[nH]c2nccnc12	99.6
N#C/C(=C(/N)SC1C=CC=CC1)c1cccc(C(O)c2ccncc2)c1 (stereo not drawn)	97.9
O=C1c2ccccc2-c2nc3nnnn3nc21	76.6
Nc1nc(Nc2ccc(S(N)(=O)=O)cc2)nn1C(=S)Nc1c(F)cccc1F	31.7
COc1cc2c(N3CCN(C(=O)Nc4ccc(OC(C)C)cc4)CC3)ncnc2cc1OCCCN1CCCCC1	48.1
CNc1cc2c(Nc3cccc(Br)c3)ncnc2cn1	95.9
CCN(CC)CCCCN1c2ccccc2Oc2ccc(Cl)cc21	99.8
O=c1c(-c2ccc(F)cc2)c(-c2ccncc2)[nH]n1-c1ccc(Cl)cc1	95.5
O=Nc1c(-c2c(O)[nH]c3ccccc23)[nH]c2ccccc12	12.4

Repeated from above (set 4):
SMILES	remaining activity [%]
CNc1cc2c(Nc3cccc(Br)c3)ncnc2cn1	95.9
CCCCc1c(-c2ccc(O)cc2)[nH]c2nccnc12	99.6
O=C(c1ccccc1)c1ccc(N2CCOCC2)cc1O	99
O=C1c2ccccc2-c2nc3nnnn3nc21	76.6
FC(F)(F)c1ccc(/C=C/c2nc(COc3ccc(CCCCn4ccnn4)cc3)co2)cc1	103
CCN(CC)CCCCN1c2ccccc2Oc2ccc(Cl)cc21	99.8
N#C/C(=C(/N)SC1C=CC=CC1)c1cccc(C(O)c2ccncc2)c1 (stereo not drawn)	97.9
